Results pooled from the literature.
UniProt P00519, sequence (whole entry, unmodified, looked up): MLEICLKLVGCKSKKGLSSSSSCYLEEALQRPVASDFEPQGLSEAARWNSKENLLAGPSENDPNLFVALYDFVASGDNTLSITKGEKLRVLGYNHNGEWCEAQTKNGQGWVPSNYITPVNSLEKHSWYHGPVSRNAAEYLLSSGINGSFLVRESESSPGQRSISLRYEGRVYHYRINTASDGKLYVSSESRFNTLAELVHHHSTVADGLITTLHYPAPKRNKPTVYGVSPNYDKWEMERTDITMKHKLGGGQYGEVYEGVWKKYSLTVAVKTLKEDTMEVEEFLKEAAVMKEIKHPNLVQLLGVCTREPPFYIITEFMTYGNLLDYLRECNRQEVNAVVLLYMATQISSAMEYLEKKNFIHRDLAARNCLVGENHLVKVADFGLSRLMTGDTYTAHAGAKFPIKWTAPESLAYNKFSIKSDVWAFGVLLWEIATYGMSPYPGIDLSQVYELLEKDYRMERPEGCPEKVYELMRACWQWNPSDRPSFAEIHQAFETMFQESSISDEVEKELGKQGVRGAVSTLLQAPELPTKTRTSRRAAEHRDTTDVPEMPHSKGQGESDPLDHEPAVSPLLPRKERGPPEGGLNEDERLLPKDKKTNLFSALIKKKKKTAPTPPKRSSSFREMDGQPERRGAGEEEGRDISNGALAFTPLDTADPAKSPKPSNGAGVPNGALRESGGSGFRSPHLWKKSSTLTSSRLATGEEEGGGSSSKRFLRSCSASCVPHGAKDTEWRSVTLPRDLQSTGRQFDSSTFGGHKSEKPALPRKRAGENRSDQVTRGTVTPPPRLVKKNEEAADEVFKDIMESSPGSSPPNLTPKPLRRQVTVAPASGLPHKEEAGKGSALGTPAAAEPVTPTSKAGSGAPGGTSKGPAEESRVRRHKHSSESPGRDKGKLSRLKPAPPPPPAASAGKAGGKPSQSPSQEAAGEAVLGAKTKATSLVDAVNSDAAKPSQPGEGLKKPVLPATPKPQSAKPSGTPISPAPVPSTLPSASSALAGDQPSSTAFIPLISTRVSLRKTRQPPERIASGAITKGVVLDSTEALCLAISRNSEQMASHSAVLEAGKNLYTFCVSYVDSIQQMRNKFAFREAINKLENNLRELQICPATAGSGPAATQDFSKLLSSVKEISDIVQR
UniProt Q96RR4, sequence (whole entry, looked up): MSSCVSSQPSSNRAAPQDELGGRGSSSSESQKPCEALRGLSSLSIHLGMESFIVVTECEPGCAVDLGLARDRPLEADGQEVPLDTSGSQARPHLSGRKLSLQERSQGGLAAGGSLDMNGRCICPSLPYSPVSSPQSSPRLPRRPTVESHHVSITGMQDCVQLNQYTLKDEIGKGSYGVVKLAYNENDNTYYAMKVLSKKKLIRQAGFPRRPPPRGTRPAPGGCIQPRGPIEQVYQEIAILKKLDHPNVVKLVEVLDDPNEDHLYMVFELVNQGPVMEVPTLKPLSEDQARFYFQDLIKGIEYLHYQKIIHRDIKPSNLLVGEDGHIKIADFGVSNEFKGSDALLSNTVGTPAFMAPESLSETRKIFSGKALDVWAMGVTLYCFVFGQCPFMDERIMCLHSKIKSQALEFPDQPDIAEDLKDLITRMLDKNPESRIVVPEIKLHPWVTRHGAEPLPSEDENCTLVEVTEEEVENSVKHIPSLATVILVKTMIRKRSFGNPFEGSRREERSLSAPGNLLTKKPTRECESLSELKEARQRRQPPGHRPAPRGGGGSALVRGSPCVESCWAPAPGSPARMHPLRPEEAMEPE

SMILES	target or system	assay	system	conditions	quantity	value
CC(=O)c1c(C)c2cnc(Nc3ccc(C4CCN(CCS(C)(=O)=O)CC4)cn3)nc2n(C2CCCC2)c1=O	–	metabolic stability	dog, liver microsomes	–	half-life	19.1 min
CCCCOc1ccccc1C(=O)NCc1csc(-c2ccccc2)n1	PFF0160c (Plasmodium falciparum, UniProt Q08210, E182D)	enzyme activity, inhibitor, absorbance	–	–	IC50	577 nM
CN(C)C1(CNC(=O)c2ccc3c(c2)CCN3C(=O)c2ccccc2)CCOCC1	–	–	male C57BL/6 mouse, brain	intraperitoneal, 50 mg/kg, 30 min, unbound	concentration	597 nM
Nc1c2c(nc3c1C(c1ccc(Cl)c(Cl)c1)c1ccc(OCC(=O)c4ccc(Cl)cc4)cc1O3)CCCC2 (stereo not drawn)	SH-SY5Y	cell growth or viability, MTT	–	1.6 µM	viability	82%
N=C(N)NCCC[C@@H](NC(=O)[C@@H](N)Cc1ccccc1)C(=O)N[C@@H](Cc1ccccc1)C(=O)N[C@@H](CCCCN)C(N)=O	–	–	human, plasma	subcutaneous, 15 mg, multiple doses, once daily, patients	AUC(0-t)	3300 ng·h/mL
CC(C)C[C@H](NC(=O)[C@H](Cc1ccccc1)NC(=O)[C@H](Cc1ccccc1)NC(=O)Cc1ccc(-c2ccccc2)cc1)C(=O)N[C@@H](CCCCN)C(=O)N[C@@H](CCCNC(=N)N)C(=O)N[C@H](C(=O)N[C@@H](Cc1c[nH]c2ccccc12)C(=O)N[C@@H](CCCCN)C(=O)N[C@@H](CCCNC(=N)N)C(=O)O)C(C)C	–	metabolic stability	dog, liver microsomes	15 min	compound remaining	86.9%
CC(C)CC(=O)OC[C@H]1O[C@@](C#N)(c2ccc3c(N)ncnn23)[C@H](O)[C@@H]1O	–	–	rat, plasma	–	fraction unbound	0.0894
C=C(C)[C@@H]1CC[C@]2(NCCN3CCS(=O)(=O)CC3)CC[C@]3(C)[C@H](CC[C@@H]4[C@@]5(C)CC=C(C6=CC[C@@](COc7ncccc7C#N)(C(=O)O)CC6)C(C)(C)[C@@H]5CC[C@]43C)[C@@H]12	–	–	human, plasma	oral, 100 mg, fed	AUC(0-t)	6460 ng·h/mL
COc1ccc(S(=O)(=O)Oc2ccc3c(c2)Oc2nc4c(c(N)c2C3c2cccc(OC)c2)CCCC4)cc1 (stereo not drawn)	SH-SY5Y	cell growth or viability, MTT	–	25 µM	viability	60.9%
Nc1ncc(-c2nc(N3CCOCC3)nc(N3CCOCC3)n2)c(C(F)F)n1	EGFR (Homo sapiens, UniProt P00533, L858R)	cell-free assay, competition with immobilised ligand	–	10 µM	remaining binding	40%
CCC[C@@](N)(CO)CCc1ccc(OCCCCCC(C)C)cc1	–	–	rat, plasma	oral, 10 mg/kg	Cmax	279 nM
CC[C@H](C)CCCCC(=O)N[C@@H](CCN)C(=O)N[C@H](C(=O)N[C@@H](CCN)C(=O)N[C@H]1CCNC(=O)[C@H]([C@@H](C)O)NC(=O)[C@H](CCN)NC(=O)[C@H](CCN)NC(=O)[C@H](CC(C)C)NC(=O)[C@@H](CC(C)C)NC(=O)[C@H](CCN)NC1=O)[C@@H](C)O	–	–	male Sprague-Dawley rat, plasma	subcutaneous, 10 mg/kg	AUC(0-inf)	22500 ng·h/mL
Cc1nn(C)cc1-c1nc2c(N3CCN(Cc4ccc(Cl)cc4)CC3)c(Cl)cnc2[nH]1	Tyrosine-protein kinase ABL1, phosphorylated (ABL1, Homo sapiens, UniProt P00519, F317I)	binding, competition with immobilised ligand	–	1 µM	remaining binding	65%
[2H]c1c([2H])c([C@]2([2H])CCCN2C(=O)C(C)(C)Oc2ccc3cn[nH]c3c2)c([2H])c([2H])c1C([2H])([2H])[2H]	CAMKK2 (Homo sapiens, UniProt Q96RR4)	binding, competition with immobilised ligand	–	1 µM	remaining binding	70%
[18FH]	–	–	mouse, blood	intravenous, 1 h	tracer uptake	0.3 %ID/g
Nc1nc(-c2ccccc2)nc2[nH]nc(Nc3ccc(C(F)(F)F)cc3)c12	–	–	mouse, plasma	oral, 100 mg/kg, 5 h	concentration	912 ng/mL
CC(C)(N)CNC(=O)O[C@@H]1CCC[C@]2(C1)OOC1(O2)C2CC3CC(C2)CC1C3 (stereo partly drawn)	–	–	male CD-1 mouse, plasma	oral, 10 mg/kg	AUC(0-inf)	604 ng·h/mL
O=C(Nc1cccnn1)N1CCN([C@@H]2CCOc3cc(C(F)(F)F)ccc32)CC1	–	–	male Sprague-Dawley rat, plasma	oral, 1 mg/kg	Cmax	480 nM

Repeated from above:
SMILES	target or system	assay	system	conditions	quantity	value
Nc1c2c(nc3c1C(c1ccc(Cl)c(Cl)c1)c1ccc(OCC(=O)c4ccc(Cl)cc4)cc1O3)CCCC2 (stereo not drawn)	SH-SY5Y	cell growth or viability, MTT	–	1.6 µM	viability	82%
